Published values of several laboratories.
Lines come from different studies, so protocols differ. Numbers after ± are the reported error.
GSK3B: Glycogen synthase kinase-3 beta (GSK3B, Homo sapiens, UniProt P49841)
Chain of UniProt P49841 (whole entry, looked up): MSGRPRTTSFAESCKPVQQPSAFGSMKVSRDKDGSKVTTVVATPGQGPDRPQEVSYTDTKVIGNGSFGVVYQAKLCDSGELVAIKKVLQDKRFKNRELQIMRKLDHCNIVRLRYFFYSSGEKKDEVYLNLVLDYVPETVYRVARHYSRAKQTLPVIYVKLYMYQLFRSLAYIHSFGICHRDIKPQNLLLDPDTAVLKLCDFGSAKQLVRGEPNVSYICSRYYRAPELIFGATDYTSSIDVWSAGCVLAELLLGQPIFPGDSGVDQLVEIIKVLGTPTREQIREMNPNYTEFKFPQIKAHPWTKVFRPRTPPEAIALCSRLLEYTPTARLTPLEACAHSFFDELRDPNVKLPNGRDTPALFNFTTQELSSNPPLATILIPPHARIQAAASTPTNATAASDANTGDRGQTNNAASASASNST
UCHL1: Ubiquitin carboxyl-terminal hydrolase isozyme L1 (UCHL1, Homo sapiens, UniProt P09936)
Chain of UniProt P09936 (whole entry, looked up): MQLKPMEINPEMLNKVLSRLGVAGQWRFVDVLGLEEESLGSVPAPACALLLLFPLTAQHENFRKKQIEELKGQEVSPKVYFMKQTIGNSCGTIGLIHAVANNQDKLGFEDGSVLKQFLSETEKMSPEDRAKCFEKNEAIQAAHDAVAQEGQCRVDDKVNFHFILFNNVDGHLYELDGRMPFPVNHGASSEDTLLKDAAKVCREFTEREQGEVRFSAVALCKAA
GSK3B with Nav1.6: Glycogen synthase kinase-3 beta, with Nav1.6 (GSK3B, Homo sapiens, UniProt P49841)

Nc1nc(NC2CCCCC2)sc1C(=O)c1ccccc1 — remaining activity (GSK3B; enzyme activity, inhibitor; 10 µM): 1%
O=C1NC(=O)/C(=C/c2ccc(-c3ccc(F)cc3O)o2)S1 — remaining activity (GSK3B; enzyme activity; 10 µM): 10%
NC(=O)C(c1ccccc1)(c1ccccc1)[C@@H]1CCN(CCc2ccc3c(c2)CCO3)C1 — inhibition (GSK3B; enzyme activity, inhibitor, ADP-Glo; 100 µM): no inhibition
CC#CC(=O)N(CCCOC)C(C)c1cccs1 (stereo not drawn) — labelling (UCHL1; covalent, intact protein LC-MS; 12.5 µM): 13.9%
COc1cc(/C=C/C(=O)C(=Cc2ccccc2)C(=O)/C=C/c2ccc(O)c(OC)c2)ccc1O — activity (GSK3B; concentration not given, cell-based): inactive
CCOC(=O)c1c(NC(=O)CNC(C)C)sc2c1CCCCC2 — luminescence (GSK3B with Nav1.6; protein complex assembly, split-luciferase complementation; HEK293; concentration not given, with: CHIR99021 2 µM; reference: DMSO control): 58.7 ± 3.9%
COc1ccc(F)cc1C(=O)NCc1ccc(-c2nn([C@@H](C)C(F)(F)F)c(N)c2C(N)=O)cc1 — inhibition (GSK3B; target engagement, competitive chemoproteomics; human PBMCs; 10 µM): 10%
CCOC(=O)C(=NNc1ccc(O)cc1)C(C)=O — maximal inhibition (GSK3B with Nav1.6; protein complex assembly, split-luciferase complementation; HEK293 with Nav1.6 co-transfected; 0.5 to 150 µM): 13.1%
CN1CCN2c3ccccc3Cc3ccccc3C2C1 (stereo not drawn) — inhibition (GSK3B; enzyme activity, inhibitor, ADP-Glo; 100 µM): no inhibition
CC(C)(C)C(=O)c1sc(NC2CCCCC2)nc1N — remaining activity (GSK3B; enzyme activity, inhibitor; 10 µM): 15%
CNc1cccc2cc(C(=O)Nc3ccc(C(=O)O)cc3)c(=O)[nH]c12 — inhibition (GSK3B; kinase activity, inhibitor; 10 µM): 3.1%
CCOCCn1c(N2CCCN(C)CC2)nc2ccccc21 — inhibition (GSK3B; enzyme activity, inhibitor, ADP-Glo; 100 µM): no inhibition
Cn1sc(=O)n(Cc2ccccc2)c1=O — inhibition zone diameter (GSK3B; yeast expressing human GSK-3; 20 mM, 28 °C): 16.7 ± 1.41 mm
CC1(C)CC(=O)C(=CNc2ccc3cn[nH]c3c2)C(=O)C1 — maximal inhibition (GSK3B with Nav1.6; protein complex assembly, split-luciferase complementation; HEK293 with Nav1.6 co-transfected; 0.5 to 150 µM): 17%
COc1cc(/C=C/C(=O)CC(=O)/C=C/c2ccc(O)c(OC)c2)ccc1O — activity (GSK3B; concentration not given, cell-based): inactive
Cc1ccc(C(=O)CC2(O)C(=O)Nc3ccc(NC(=O)c4ccccc4)cc32)cc1 (stereo not drawn) — activity (GSK3B; concentration not given): active
COc1cc(/C=C2\CC/C(=C\c3ccc(O)c(OC)c3)C2=O)ccc1O — activity (GSK3B; concentration not given, cell-based): inactive
Cc1cc(NNC(=O)NC2CCCCC2)nc(Cl)c1C#N — labelling (UCHL1; covalent, intact protein LC-MS; 12.5 µM): 13.6%

Repeated from above:
Nc1nc(NC2CCCCC2)sc1C(=O)c1ccccc1 — remaining activity (GSK3B; enzyme activity, inhibitor; 10 µM): 1%
